{"data": "Published values from different studies", "note": "Compare with care: the assays were run in different laboratories. ± marks the error that the study gave."}
{"Structure (SMILES)": "OC[C@H]1O[C@@H](OCCc2ccc(O)cc2)[C@H](O)[C@@H](O)[C@@H]1O", "system": "Balb/c tumour-bearing mice, plasma", "setting": "oral, 109.2 mg/kg SNZ", "Tmax [h]": 0.3}
{"Structure (SMILES)": "OCCc1ccc(O)c(O)c1", "system": "obese male C57BL/6J mice, plasma", "setting": "oral, 200 mg/kg", "Tmax [h]": "0.417 ± 0.0833"}
{"Structure (SMILES)": "CO[C@H]1C[C@@H]2CC[C@@H](C)[C@@](O)(O2)C(=O)C(=O)N2CCCC[C@H]2C(=O)O[C@H]([C@H](C)C[C@@H]2CC[C@@H](O)[C@H](OC)C2)CC(=O)[C@H](C)/C=C(\\C)[C@@H](O)[C@@H](OC)C(=O)[C@H](C)C[C@H](C)/C=C/C=C/C=C/1C", "system": "NOD/SCID mice, male, blood or plasma", "setting": "intraperitoneal, 0.5 mg/kg every 48 h", "Tmax [h]": 1}
{"Structure (SMILES)": "Nc1cc(-c2ccccc2)ccc1Cn1cncc1CNc1ccc(Cl)c(-c2ccccc2)c1", "system": "female BALB/c mice, plasma", "setting": "oral, 50 mg/kg single dose", "Tmax [h]": 0.5}
{"Structure (SMILES)": "Cn1cnc2c(F)c(Nc3ccc(Br)cc3Cl)c(C(=O)NOCCO)cc21", "system": "nude mice with A-375 tumours, plasma", "setting": "oral, 10 mg/kg once daily, 7 days, steady state", "Tmax [h]": 1}
{"Structure (SMILES)": "CN1CCN(c2ccc(Nc3ncc4cc(C#N)c(=O)n(C5CCCC5)c4n3)cc2)CC1", "system": "NIH Swiss nude mice, intracerebral U87 tumour, brain", "setting": "intravenous, 25 mg/kg, together with: gefitinib 200 mg/kg oral 1 h before", "Tmax [h]": 0.25}
{"Structure (SMILES)": "CN1CCN(c2ccc3nc(-c4c(N)c5c(F)cccc5[nH]c4=O)[nH]c3c2)CC1", "system": "NOD/SCID mice, male, blood or plasma", "setting": "oral, 30 mg/kg once daily, day 1", "Tmax [h]": 6}
{"Structure (SMILES)": "COc1cc(CCC(C)=O)ccc1O", "system": "obese male C57BL/6J mice, plasma", "setting": "oral, 200 mg/kg", "Tmax [h]": "0.833 ± 0.167"}
{"Structure (SMILES)": "CCOc1cc(C(C)(C)C)ccc1C1=N[C@@](C)(c2ccc(Cl)cc2)[C@@](C)(c2ccc(Cl)cc2)N1C(=O)N1CCN(CCCS(C)(=O)=O)CC1", "system": "athymic nude mice, orthotopic GBM, tumour-bearing brain hemisphere", "setting": "oral, 100 mg/kg", "Tmax [h]": 2}
{"Structure (SMILES)": "COc1ccc(NC(=O)N2CCCCN3[C@H](CN(C)C)[C@H](c4ccc(C#Cc5ccccc5)cc4)[C@@H]3C2)cc1", "system": "CD-1 mice, plasma", "setting": "oral, 10 mg/kg", "Tmax [h]": 8}
{"Structure (SMILES)": "O=C(c1ccc(OCCN2CCCCC2)cc1)c1c(-c2ccc(O)cc2)sc2cc(O)ccc12", "system": "C57BL/6 mice male, plasma", "setting": "oral, 20 mg/kg, median", "Tmax [h]": 2}
{"Structure (SMILES)": "OCCc1ccc(O)cc1", "system": "Balb/c tumour-bearing mice, plasma", "setting": "oral, 109.2 mg/kg SNZ", "Tmax [h]": 0.533}
{"Structure (SMILES)": "Nc1cc(-c2ccccc2)ccc1Cn1cncc1CNc1ccc(-c2nc3ccccc3s2)c(-c2ccccc2)c1", "system": "female BALB/c mice, plasma", "setting": "oral, 50 mg/kg single dose", "Tmax [h]": 1}
{"note": "Repeated from above:"}
{"Structure (SMILES)": "Cn1cnc2c(F)c(Nc3ccc(Br)cc3Cl)c(C(=O)NOCCO)cc21", "system": "nude mice with A-375 tumours, plasma", "setting": "oral, 10 mg/kg once daily, 7 days, steady state", "Tmax [h]": 1}
